# Measurements collected from several papers.
# Lines come from different studies, so protocols differ. ± gives the spread as reported.
# OPRK1: Kappa-type opioid receptor (OPRK1, Homo sapiens, UniProt P41145)
SMILES,target,assay,test system,conditions,Ki
COC1CC(=O)N(C)C=CCCCC(=O)N(C)C(C(C)C)C(=O)N(C)C(CC(C)C)C(=O)OC(C(C)C)CC(C)C1 (stereo not shown),"Substance-K receptor (TACR2, Homo sapiens, UniProt P21452)","ligand displacement, radioligand",,,1.2 µM
COC(=O)N(C)[C@@H](Cc1ccccc1)C(=O)N[C@@H](Cc1ccccc1)C(=O)N[C@@H](Cc1ccc(O)cc1)C(=O)N[C@@H](CCCNC(=N)N)C(=O)N[C@@H](CC(C)C)C(=O)N[C@@H](CCCNC(=N)N)C(=O)N[C@@H](CCCNC(=N)N)C(=O)N[C@H](C)C(=O)N[C@@H](CCCNC(=N)N)C(=O)N1CCC[C@H]1C(=O)N[C@@H](CCCCN)C(N)=O,"Kappa-type opioid receptor (Oprk1, Rattus norvegicus, UniProt P34975)","ligand displacement, radioligand",,,0.0058 µM
C[n+]1cn([C@@H]2O[C@H](COP(=O)([S-])OP(=O)(O)OP(=O)(O)OP(=O)([S-])OC[C@H]3O[C@@H](n4c[n+](C)c5c(O)nc(N)nc54)[C@H](O)[C@@H]3O)[C@@H](O)[C@H]2O)c2nc(N)nc(O)c21 (stereo partly shown),"mRNA decapping complex subunit 2 (dcp2, Schizosaccharomyces pombe, UniProt O13828)","mRNA decapping, inhibitor",,"single turnover, free enzyme, added: Dcp2 alone, capped 29-nt RNA",121 ± 16 µM
Cc1cc(O)cc(C)c1CC(N)C(=O)NC1CCNc2ccc(CN3CCc4ccccc4C3)cc21 (stereo not shown),OPRK1,"ligand displacement, radioligand",,cell membranes,0.0022 µM
O=C(O)C1(n2cnnn2)CCCCC1,"Beta-lactamase (ampC, Escherichia coli K-12, UniProt P00811)",,,,< 10000 µM
CC[C@H](C)[C@H](NC(=O)CN)C(=O)N[C@H](C(=O)N[C@@H](CC(N)=O)C(=O)N[C@H](C(=O)N[C@@H](CC(C)C)C(=O)N[C@@H](CCC(N)=O)C(=O)N[C@@H](CCCCN)C(=O)N[C@@H](Cc1ccc(O)cc1)C(=O)N[C@@H](Cc1ccc(O)cc1)C(=O)N[C@H]1CSSC[C@@H]2NC(=O)[C@H](CCC(N)=O)NC(=O)[C@H](CCC(N)=O)NC(=O)CNC(=O)[C@H](CCC(N)=O)NC(=O)[C@H]([C@@H](C)O)NC(=O)[C@H](CO)NC(=O)[C@@H]3CSSC[C@H](NC(=O)[C@H](CCCNC(=N)N)NC(=O)CNC(=O)CNC(=O)[C@H](CCCNC(=N)N)NC(=O)[C@H](C(C)C)NC(=O)[C@H](CCCNC(=N)N)NC1=O)C(=O)N[C@@H](C)C(=O)N[C@@H](C(C)C)C(=O)N[C@@H](CC(C)C)C(=O)N[C@@H](CO)C(=O)N[C@@H](CSSC[C@@H](C(=O)N[C@@H](CCCNC(=N)N)C(=O)N[C@@H](CCCNC(=N)N)C(=O)N[C@@H](CCCCN)C(=O)N[C@@H](CCCCN)C(N)=O)NC2=O)C(=O)N[C@@H](CC(C)C)C(=O)N1CCC[C@H]1C(=O)N[C@@H](CCCCN)C(=O)N[C@@H](CCC(=O)O)C(=O)N[C@@H](CCC(=O)O)C(=O)N[C@@H](CCC(N)=O)C(=O)N[C@@H]([C@@H](C)CC)C(=O)NCC(=O)N[C@@H](CCC(N)=O)C(=O)N3)[C@@H](C)O)[C@@H](C)CC,"Melanocyte-stimulating hormone receptor (MC1R, Homo sapiens, UniProt Q01726)",ligand displacement in cells,,,0.189 µM
CCCCCCCCCCCCCCN(O)C(=O)CCCCC[C@@H]1NC(=O)[C@H]2CCCN2C(=O)[C@H](Cc2ccccc2)NC(=O)[C@H](Cc2ccccc2)NC1=O,"Histone deacetylase 11 (HDAC11, Homo sapiens, UniProt Q96DB2)","enzyme activity, inhibitor, fluorescence",,,0.0021 µM
CCC(=O)c1ccc2c(c1)sc(=O)n2CCCCCCN1CCCCCC1,"Sigma non-opioid intracellular receptor 1 (Sigmar1, Rattus norvegicus, UniProt Q9R0C9)","binding, radioligand binding",rat liver membranes,added: [3H](+)-pentazocine 5 nM,0.0104 ± 0.0001 µM
CC(=O)N[C@@H](CCCNC(=N)N)C(=O)N[C@@H](Cc1ccc(O)cc1)C(=O)N[C@@H](CCCNC(=N)NC(=O)NCCCCN)C(=O)N[C@@H](CC(C)C)C(=O)N[C@@H](CCCNC(=N)N)C(=O)N[C@H](Cc1ccc(O)cc1)C(N)=O,"Neuropeptide Y receptor type 5 (NPY5R, Homo sapiens, UniProt Q15761)","ligand displacement, radioligand",,,> 5 µM
Cc1cc(O)cc(C)c1CC(N)C(=O)NC1CCNc2c(C(=O)NCc3ccccc3)cc(Cc3ccccc3)cc21 (stereo not shown),OPRK1,"ligand displacement, radioligand",,cell membranes,0.03 µM

# A few entries again:
SMILES,target,assay,test system,conditions,Ki
CC[C@H](C)[C@H](NC(=O)CN)C(=O)N[C@H](C(=O)N[C@@H](CC(N)=O)C(=O)N[C@H](C(=O)N[C@@H](CC(C)C)C(=O)N[C@@H](CCC(N)=O)C(=O)N[C@@H](CCCCN)C(=O)N[C@@H](Cc1ccc(O)cc1)C(=O)N[C@@H](Cc1ccc(O)cc1)C(=O)N[C@H]1CSSC[C@@H]2NC(=O)[C@H](CCC(N)=O)NC(=O)[C@H](CCC(N)=O)NC(=O)CNC(=O)[C@H](CCC(N)=O)NC(=O)[C@H]([C@@H](C)O)NC(=O)[C@H](CO)NC(=O)[C@@H]3CSSC[C@H](NC(=O)[C@H](CCCNC(=N)N)NC(=O)CNC(=O)CNC(=O)[C@H](CCCNC(=N)N)NC(=O)[C@H](C(C)C)NC(=O)[C@H](CCCNC(=N)N)NC1=O)C(=O)N[C@@H](C)C(=O)N[C@@H](C(C)C)C(=O)N[C@@H](CC(C)C)C(=O)N[C@@H](CO)C(=O)N[C@@H](CSSC[C@@H](C(=O)N[C@@H](CCCNC(=N)N)C(=O)N[C@@H](CCCNC(=N)N)C(=O)N[C@@H](CCCCN)C(=O)N[C@@H](CCCCN)C(N)=O)NC2=O)C(=O)N[C@@H](CC(C)C)C(=O)N1CCC[C@H]1C(=O)N[C@@H](CCCCN)C(=O)N[C@@H](CCC(=O)O)C(=O)N[C@@H](CCC(=O)O)C(=O)N[C@@H](CCC(N)=O)C(=O)N[C@@H]([C@@H](C)CC)C(=O)NCC(=O)N[C@@H](CCC(N)=O)C(=O)N3)[C@@H](C)O)[C@@H](C)CC,"Melanocyte-stimulating hormone receptor (MC1R, Homo sapiens, UniProt Q01726)",ligand displacement in cells,,,0.189 µM
